Results of several laboratories.
Parts stem from different laboratories: compare values within a part only.

Set 1 — technique: RNA Bind-n-Seq; molecule type: RNA; sample: in vitro; concentration: 365 nM; reference: no-protein control; direction: higher = stronger binding; endpoint: RBNS enrichment (R)
Target: RNA binding protein fox-1 homolog 2, RRM domain, GST-SBP tag (RBFOX2, Homo sapiens, UniProt O43251-10, residues 100-194)
Notes: natural RNA segment, single round, ends assumed
Shared flanks, not repeated: GGGAGUUCUACAGUCCGACGAUC … UGGAAUUCUCGGGUGCCAA
Residues (chain): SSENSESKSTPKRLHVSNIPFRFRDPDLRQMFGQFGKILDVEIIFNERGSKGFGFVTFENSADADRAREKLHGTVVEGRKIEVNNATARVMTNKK
GGGGAUUUAGACUGAUGUGUGCAUUGGCUGAGCUGAACCUUGGUCUCUUGAUGUCCCUGGAGAGCUGAGGUCGAGACCCCAUUCAUGCAGGAGGAGGAAGAAGGAAGUGU: 1.2
UUCACAGUUUUAAAAACUGCCAUGCAGUGAUUUCGGCACUCUGGGGCCAGACAGCAGCUCCCUGUCAGACGGCCAACAAGAGUUCUCUGGAAUGCUUGUGAGUCCGUUCC: 0.487
GUAGAGUCAGGAGGGCAGGCUAGAUGCUCAGCCACAAGACAGCCUUUACUGAAAAAGCUAUUGGACUCUUGCUCUUUCUAGCUCUGAACUAAUAAAUGUCUUAUCACGCU: 0.377
UGAGUUCCCUGGGCAGCCCCCAGGAAGGCCUUCCAGAUCUGGCUCCAGGGUCACCACCUGUCACAGCAAUACCUGGGACCAUGCUCUCCUGGGACUGUGAGGCUCCUUUU: 0.183
CCAGUUCCCAAAUCAAUUAUAGGUACCUGUUUAGGAGAGAGGAAGAUUUUACCUCUCAAAGGGUGAGAUUUGAAAUUUACACUAAAAAGACAACUUUACAUUUAAUGCUU: 0.286
CACACAGUGAUUGACCUGGUCCCACUCCAUUGGGGAAGAAAAGAUACAGAUGUUUGGUUUGGCCAGCUGACAAGGAAGCAGUCCAUAGAAGAGAUGGGCUCAGCCUGAAC: 0.517
GUGUGUGUGGAAAGGGUAGGGCUGCACCCUGUGGAAGAGGGUUCAGGGAGCUCUGAGGACCUGGCUCGUGCUAGAUGCUCAGUCAGUAGUGUGUUUUAGCAGCAGCCGGA: 1.12
UCCCCUAGUAGAAGCAGGUUCUUGGAAGUUACAAUUUAAGGUACCCCCAAAAAGUUGGAAAUAAAAGGAAACAAAUUUGAACAACGAAGCACCCUGUGACAUGCCGACGC: 0.279
AGGGGCUUCCGGCUCCCUUCUACAGCCUCAGAAACCAGACUCGUUCUUCUGGGAACCCUGCCCACUCCCAGGACCAAGAUUGGCCUGAGGCUGCACUAAAAUUCACUUAG: 0.339
AAAACUUGGAGGGUCUCGGUUGUUUUCCAUGCCUGGCCCCUCACAGCAGCGAGGCCACUGAAGAGCAACACACCCAGUGUGUGUCAGUGUUCUCAGCCCAGCCCUCCCUG: 0.271
CGAAAAAAAAAUCAAAGCGGGAAGAAAAUCAGAGGGAAGGUUAAGGUUGGCUCUGGCCAGGAUUCCAGGCAGCAGGUUGGAGUGACUGGUGGGCCUAGAUCACUGGUGUG: 0.787
ACAUCAUCACAGCAGCCUCCUCACUUGGGUACUACAGUGUGGAAGCUGAGUGCAUAUGGUAUAUUUUAUUCAUUUUUGUAAAGCGUUCUGUUUUGUGUUUACUAAUUGGG: 0.674

Set 2 — technique: protein binding microarray; molecule type: double-stranded DNA, one strand shown; sample: in vitro; concentration: not given; reference: not given; direction: higher = stronger binding; endpoint: E-score
Target: Histone acetyltransferase KAT6A, winged helix 1, GST fusion (KAT6A, Homo sapiens, UniProt Q92794, residues 1-85)
Notes: 8-mer, flanks averaged, mean of 2 arrays, mostly near background
Residues (chain): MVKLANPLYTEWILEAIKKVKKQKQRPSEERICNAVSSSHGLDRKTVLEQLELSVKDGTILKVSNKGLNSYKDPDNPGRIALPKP
CTTAGACA: -0.119
CTAGGAAG: -0.166
AAGGGGAA: -0.181
CTCAAATC: -0.108
CCGGCCTA: 0.122
CCTGGATA: 0.00285
GACCCGGA: 0.221
CTAACAAA: -0.166
CGGCCGAC: 0.423
CAATCTCG: -0.176
AAAGGATC: -0.0818
AGGTAACT: -0.125
CACGTCGG: 0.209
GCAATCGA: 0.00342
ATGGCTGC: -0.126
ATTACCCA: -0.215
GCACAACA: -0.131
ATGCCTCA: 0.0423
CTGCGGTA: 0.228
CACACCCG: 0.124
AGGTCATG: -0.164
AGGAAGAC: -0.313
CCGGCATA: 0.338
CCATGCGC: 0.231
ATTACCTC: -0.1

Set 3 — technique: aptamer microarray, sandwich; molecule type: DNA with 2'F-ANA; sample: in vitro; concentration: 200 nM; added: Cy3 exosite-II aptamer, 400 nM; direction: higher = stronger binding; endpoint: mean fluorescence intensity; strand: GGTTGGTGTGGTTGG
Target: Prothrombin, mature alpha-thrombin (F2, Homo sapiens, UniProt P00734)
Notes: whole 15-mer aptamer, many near background
2'F-ANA at 2 6 7 8 10 11 13 14: 99.8 a.u.
2'F-ANA at 5 6 7 8 9 10 13 14 15: 45.7 a.u.
2'F-ANA at 1 2 4 5 8 13: 47.4 a.u.
2'F-ANA at 1 2 4 10 12 13 15: 56.1 a.u.
2'F-ANA at 1 2 5 6 7 8 9 10 13: 50.4 a.u.
2'F-ANA at 2 4 6 7 9 13 14: 71.6 a.u.
2'F-ANA at 2 4 8 9 11 12 13 14 15: 96.6 a.u.
2'F-ANA at 3 4 5 6 9 10 12 13 14 15: 53 a.u.
2'F-ANA at 1 4 5 6 10 15: 46.4 a.u.
2'F-ANA at 1 2 3 4 5 7 8 10 12 13 15: 59.4 a.u.
2'F-ANA at 2 3 5 10 11 12 13 15: 58.2 a.u.
2'F-ANA at 1 3 5 7 8 9 11 13 14 15: 50.8 a.u.
2'F-ANA at 5 6 9 10 11 13: 45.6 a.u.
2'F-ANA at 2 3 8 9 11: 804 a.u.
2'F-ANA at 4 5 6 7 10 12 13: 57.2 a.u.
2'F-ANA at 4 5 6 7 8 13 14: 44.2 a.u.
2'F-ANA at 1 2 3 5 6 9 11 13 15: 62.2 a.u.
2'F-ANA at 1 5 6 8 11 13 14: 49.5 a.u.
2'F-ANA at 3 5 7 8 10 11 12 13 14 15: 57.1 a.u.
2'F-ANA at 1 3 4 5 7 8 10 11 14: 48.7 a.u.
2'F-ANA at 7 8 11 14: 225 a.u.
2'F-ANA at 1 2 4 6 7 9 12 14 15: 57 a.u.
2'F-ANA at 2 3 4 5 8 9 11 13 14: 46.1 a.u.
2'F-ANA at 1 3 4 5 6 8 9 10 11 13: 44.5 a.u.
2'F-ANA at 5 11 12 13 14: 45.4 a.u.

Set 4 — technique: protein-binding microarray; molecule type: double-stranded DNA, one strand shown; sample: in vitro; concentration: 0.8 µM; notes: whole 60-bp probe, no competitor; direction: higher = stronger binding; endpoint: fluorescence intensity; shared flanks, not repeated: … GTCTTGATTCGCTTGACGCTGCTG
Target: Centromere-binding protein 1, full length, N-terminal tag (CBF1, Saccharomyces cerevisiae, UniProt P17106, residues 1-351)
Chain of UniProt P17106 (whole entry, looked up): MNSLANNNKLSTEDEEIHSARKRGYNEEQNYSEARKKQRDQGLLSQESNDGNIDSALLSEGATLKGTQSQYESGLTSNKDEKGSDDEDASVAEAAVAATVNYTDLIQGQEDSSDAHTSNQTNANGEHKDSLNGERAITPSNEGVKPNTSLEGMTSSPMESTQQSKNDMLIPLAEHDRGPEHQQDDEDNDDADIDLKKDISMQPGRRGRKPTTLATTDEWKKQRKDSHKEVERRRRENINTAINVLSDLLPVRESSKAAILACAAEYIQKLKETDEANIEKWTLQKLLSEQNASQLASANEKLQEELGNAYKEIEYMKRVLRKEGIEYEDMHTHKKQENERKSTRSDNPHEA
CTACGCTTATCGCTTATCGTGCGCCAAAAACCGTTC: 521 a.u.
CTACCTATAAGAAGCCGCATCACCTTAAACACTTTC: 509 a.u.
CTACGGATCGCTTCGCACGTTTGTTTACAATTGTTC: 544 a.u.
CTACTCGGTGAAAATCACGAAAAACTTGACACTTTC: 511 a.u.
GAATTGCGGTTACTACTGACCACGAAGCAATGCTAG: 521 a.u.
CTATCTCGAGGTGCCCACATGCAATCTTTACTGTTC: 568 a.u.
GAAGTTCCGGCCGCACGTGCAGCGCATGTGTACTAG: 6800 a.u.
CTACGCATCCCCGTAAACGTGTTAAATATTACATTC: 624 a.u.
CTATAAAGTGAGGCTCACCTGGTCATTTAACACTTC: 598 a.u.
GAACATAAGCGCTAAGGCGTGATAACTCAACTTTAG: 588 a.u.
CTACTTTCCGGTTACCACGCCTCGGGTTTCGCATTC: 550 a.u.
CTATTCACTTCAGCTGTCACCACCAGTTTTAGGTTC: 522 a.u.
CTATGAGAATAACGTCTCCTGATTAAGCAGGTGTTC: 625 a.u.
GAAATTCTTCTCGTTCCCGTGATGTTTTCAATATAG: 1290 a.u.
CTAGCAACTCTCTCCGTCATGACCACTACTCCGTTC: 520 a.u.
CTACAAGCGAAATATCACGAATAATAATATAAATTC: 501 a.u.
CCTAACTACTATATCACGTGTAAATAGCTTCGTACA: 8260 a.u.
GAAATTTTGATTACCATCAGCAAATGGATTTTCTAG: 529 a.u.
GAAGAATTTTGCTTACTCGTGCTGCCGGGGACATAG: 592 a.u.
CTAGCAATGGCGATTCACGTGTTCGGTAACCACTTC: 4630 a.u.
GAATCGCGATCTTTACACGTTCCACTAGTCAATTAG: 540 a.u.
CTAGTTTGTCATGATAGCATGACGGTAGCAGGCTTC: 537 a.u.
GAAAAGGAAGGTGTTCACGTTGTGAACTTTAATTAG: 575 a.u.
TGTACGAAGCTATACCACGTAGATATAGTAGTTAGG: 561 a.u.
GAAGTAATTTGAAGTCATCACGTTTGCCCACATTAG: 774 a.u.

Set 5 — technique: EMSA with sequencing; molecule type: double-stranded DNA, one strand shown; sample: in vitro; concentration: 10 and 20 nM; reference: negative control set to 0; direction: higher = stronger binding; endpoint: normalised bound fraction
Target: Hepatocyte nuclear factor 3-alpha (Foxa1, Mus musculus, UniProt P35582, residues 1-468, full length assumed)
Chain of UniProt P35582 (whole entry, looked up): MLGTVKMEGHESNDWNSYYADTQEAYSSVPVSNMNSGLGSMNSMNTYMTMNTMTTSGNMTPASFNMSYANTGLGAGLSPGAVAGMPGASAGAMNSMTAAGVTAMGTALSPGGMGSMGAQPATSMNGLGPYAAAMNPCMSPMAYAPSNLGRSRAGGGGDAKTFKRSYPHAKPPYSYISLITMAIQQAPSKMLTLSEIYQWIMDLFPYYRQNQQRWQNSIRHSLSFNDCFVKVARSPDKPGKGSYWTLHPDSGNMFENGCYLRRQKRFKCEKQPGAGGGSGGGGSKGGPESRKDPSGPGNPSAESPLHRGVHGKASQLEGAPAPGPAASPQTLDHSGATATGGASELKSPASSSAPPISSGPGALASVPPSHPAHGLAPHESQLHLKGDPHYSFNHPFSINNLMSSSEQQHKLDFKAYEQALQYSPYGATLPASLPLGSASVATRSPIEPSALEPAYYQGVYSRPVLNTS
Notes: whole designed probe, mean of two concentrations, ends assumed
Shared flanks, not repeated: GTGAGCGGTGCCCATTGATGGGGAAC … TTTCACTGGGATCGTGGGGAC
TTATTTTAATGCATGCATTAATTCTCCTTTTCATCTCACTGCCTGCCAGAAAATTGGTTGTACAAGCGTTCAAGGCATTTTCCCTGGACCAGATATTTACACAGGAGTACTGTGTTGACATTATGTGGCTTCGGATTTCAGCGGGCAGGCTGATGCCTCTTGGGACATGTAAGTGCAGAAGGCAAGGCCTGCC: 0.39 ratio
ATCTTCCCCCTCTTCCTTGCCCCACCAGCTCACCTTCCCGGGTTATTTGCAGATAGGAAAATAAATAAAGCCGGCATTCGTTAACCCTCTTCACGCGCATACTGCTGTTTACTTTGGATCTAACATGGTCCTTTGGCGACGCCAGGCTCCGGGAGAGCAAAGCACCGTGTCAGGGCCATGATCCGGGGTGGCC: 0.428 ratio
TAAATTCCATATAAATTATACATACAAATACATATTATATATGATATAAATATTTGTTATAACATATTATATAAAATATAAATATATACAATGTAATCTTATATATTATTCTATACATGTAAATTATATAGAAAGAATAATATATAAAATGTATATATCTATGTCAGGCACAATTACGTGTGTTATTCAATTT: 0.409 ratio
GTGTGTGCGCGCGCGTGTGTGTGTGTTTTCTTAAGCCGGGCTATTCAAACCCTGCTGCAATTCTCCGGTAAACAATGATTCATGGGGCATAATGCAATTTAACGGATTGCAAACGGCGCGGTTCGCGCACTTTGCAGCCGGCCCGGTGGAGCAGCCAGTGCCGGATTTCTCCCTTTTTTTGCAGATCTGCAGA: 0.135 ratio
ATCTTCCCCCTCTTCCTTGCCCCACCAGCTCACCTTCCCGGGTTATTTGCAGATAGGAAAATAAATAAAGCCGGCATTCGTTAACCCTCTTCACGCGCATACTGCTGTTTGCTCTGGATCTAACATGGTCCTTTGGCGACGCCAGGCTCCGGGAGAGCAAAGCACCGTGTCAGGGCCATGATCCGGGGTGGCC: 0.37 ratio

Excerpt of the above (set 5):
TAAATTCCATATAAATTATACATACAAATACATATTATATATGATATAAATATTTGTTATAACATATTATATAAAATATAAATATATACAATGTAATCTTATATATTATTCTATACATGTAAATTATATAGAAAGAATAATATATAAAATGTATATATCTATGTCAGGCACAATTACGTGTGTTATTCAATTT: 0.409 ratio
GTGTGTGCGCGCGCGTGTGTGTGTGTTTTCTTAAGCCGGGCTATTCAAACCCTGCTGCAATTCTCCGGTAAACAATGATTCATGGGGCATAATGCAATTTAACGGATTGCAAACGGCGCGGTTCGCGCACTTTGCAGCCGGCCCGGTGGAGCAGCCAGTGCCGGATTTCTCCCTTTTTTTGCAGATCTGCAGA: 0.135 ratio
TTATTTTAATGCATGCATTAATTCTCCTTTTCATCTCACTGCCTGCCAGAAAATTGGTTGTACAAGCGTTCAAGGCATTTTCCCTGGACCAGATATTTACACAGGAGTACTGTGTTGACATTATGTGGCTTCGGATTTCAGCGGGCAGGCTGATGCCTCTTGGGACATGTAAGTGCAGAAGGCAAGGCCTGCC: 0.39 ratio
ATCTTCCCCCTCTTCCTTGCCCCACCAGCTCACCTTCCCGGGTTATTTGCAGATAGGAAAATAAATAAAGCCGGCATTCGTTAACCCTCTTCACGCGCATACTGCTGTTTACTTTGGATCTAACATGGTCCTTTGGCGACGCCAGGCTCCGGGAGAGCAAAGCACCGTGTCAGGGCCATGATCCGGGGTGGCC: 0.428 ratio
ATCTTCCCCCTCTTCCTTGCCCCACCAGCTCACCTTCCCGGGTTATTTGCAGATAGGAAAATAAATAAAGCCGGCATTCGTTAACCCTCTTCACGCGCATACTGCTGTTTGCTCTGGATCTAACATGGTCCTTTGGCGACGCCAGGCTCCGGGAGAGCAAAGCACCGTGTCAGGGCCATGATCCGGGGTGGCC: 0.37 ratio
